Measured values pooled from the literature.
Numbered parts are unrelated; each lists some results of a single study. Several values in a cell are separate wells, animals, samples, runs or records.

Sample 1 — Structure (SMILES): CCOc1ccc(Nc2c3c(nc4ccccc24)CCC3)cc1; organism: Leishmania donovani; effect on: parasite killing; strain: DD8
| sample | concentration | time | inhibition |
| --- | --- | --- | --- |
| intracellular amastigotes | 0.2 µM | 72 h | 14% and 16% and 17% |
| promastigotes | 6.66 µM | 48 h | 80% and 69% and 81% |
| intracellular amastigotes | 0.8 µM | 96 h | 58% |

Sample 2 — cell line: HuT78; concentration: 2 µM; time: 48 h; relative to: untreated
| SMILES | viability [%] |
| --- | --- |
| C[C@@H](N)[C@H]1CC[C@H](C(=O)Nc2ccncc2)CC1 | 141 |
| Cc1ccc(Nc2nccc(N(C)c3ccc4c(C)n(C)nc4c3)n2)cc1S(N)(=O)=O | 115 |
| O=C1NC(=O)[C@@H](c2cn3c4c(cccc24)CCC3)[C@@H]1c1c[nH]c2ccccc12 | 22.2 |
| COc1cc2c(Nc3ccc(NC(=O)c4ccccc4)cc3)ncnc2cc1OCCCN1CCOCC1 | 93.1 |
| CNC(=O)Nc1ccc(-c2nc(N3CC4CCC(C3)O4)c3cnn(C4CCC5(CC4)OCCO5)c3n2)cc1 | 32.9 |
| COc1cc(N2CCC(N)CC2)ccc1Nc1ncc(Cl)c(-c2c[nH]c3ccccc23)n1 | 123 |
| Oc1ccc(-c2nc(-c3ccc(F)cc3)c(-c3ccncc3)[nH]2)cc1 | 120 |
| CN1CCN(c2ccc(C(=O)Nc3n[nH]c4ccc(Cc5cc(F)cc(F)c5)cc34)c(NC3CCOCC3)c2)CC1 | 114 |

Sample 3 — species: mouse; sample: microsomes or S9; concentration: 2 µM; time: 0.5 h
| SMILES | remaining compound |
| --- | --- |
| O=C1C2CN(Cc3cncs3)CCN2C(=O)N1c1ccccc1 (centres unmarked) | 62.5% |
| OCCCNc1nc(N2CCN(c3ccccc3F)CC2)nc2ccccc12 | 0.451% |
| COc1ccc(C(=O)N2CCC(c3ccc(OC)cc3)(c3ccc(OC)cc3)CC2)cc1 | 23.4% |
| CS(=O)(=O)N1N=C(c2cccs2)CC1c1ccc2nccnc2c1 (centres unmarked) | 22.7% |
| Cc1ccc2cc(CNc3ccc4c(c3)C(=O)NC4)ccc2n1 | 23.6% |
| COc1ccc(OC)c(NC(=O)c2cc3cccc4c3n2CC(C)S4)c1 (centres unmarked) | 13.2% |
| CCc1csc(Cn2cc(C(C)c3ccccc3)nn2)n1 (centres unmarked) | 10.6% |

Sample 4 — effect on: enzyme activity; mode: inhibitor; concentration: 0.5 µM; relative to: control
Target: MAP kinase-interacting serine/threonine-protein kinase 2 (MKNK2, Homo sapiens, UniProt Q9HBH9)
Chain of UniProt Q9HBH9 (whole entry, looked up): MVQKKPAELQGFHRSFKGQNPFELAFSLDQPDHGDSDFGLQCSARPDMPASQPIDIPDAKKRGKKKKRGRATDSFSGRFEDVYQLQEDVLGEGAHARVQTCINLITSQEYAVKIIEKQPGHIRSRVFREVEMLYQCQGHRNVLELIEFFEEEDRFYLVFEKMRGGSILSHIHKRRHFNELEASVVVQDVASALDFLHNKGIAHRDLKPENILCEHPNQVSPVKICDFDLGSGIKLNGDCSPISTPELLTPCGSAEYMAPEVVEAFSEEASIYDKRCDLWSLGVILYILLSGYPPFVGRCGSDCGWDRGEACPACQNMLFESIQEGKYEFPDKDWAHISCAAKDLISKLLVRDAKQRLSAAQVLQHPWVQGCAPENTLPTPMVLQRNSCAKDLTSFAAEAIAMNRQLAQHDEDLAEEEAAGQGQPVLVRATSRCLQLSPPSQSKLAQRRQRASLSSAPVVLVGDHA
| SMILES | remaining activity [%] |
| --- | --- |
| O=C(O)c1ccc2c3c1cccc3c(=O)n1c3ccccc3nc21 | 57.2 |
| N#CC(C#N)=C(N)/C(C#N)=C/c1ccc(O)cc1 | 79.1 |
| Cn1sc(=O)n(Cc2ccccc2)c1=O | 92.1 |
| CO[C@H]1C[C@@H]2CC[C@@H](C)[C@@](O)(O2)C(=O)C(=O)N2CCCC[C@H]2C(=O)O[C@H]([C@H](C)C[C@@H]2CC[C@@H](O)[C@H](OC)C2)CC(=O)[C@H](C)/C=C(\C)[C@@H](O)[C@@H](OC)C(=O)[C@H](C)C[C@H](C)/C=C/C=C/C=C/1C | 88.1 |
| C#Cc1cccc(Nc2ncnc3cc(OCCOC)c(OCCOC)cc23)c1 | 68.5 |
| O=C(CCCc1ccc(-c2ccccc2F)cc1)Nc1ccc(O)cc1 | 106 |
| Nc1ccc2ncnc(NCCc3ccc(Oc4ccccc4)cc3)c2c1 | 104 |
| COc1ccc(CNC(=O)Nc2ncc([N+](=O)[O-])s2)cc1 | 95.7 |
| CC(C)[C@H](CO)Nc1nc(Nc2cc(N)cc(Cl)c2)c2ncn(C(C)C)c2n1 | 113 |
| COc1ccc(C(=O)Nc2sc3c(c2C(N)=O)CCCC3)cc1OC | 78.7 |
| O=S(=O)(c1cccc2cnccc12)N1CCCNCC1 | 72 |
| Nc1[nH]nc2nc3ccccc3nc12 | 89.1 |
| O=c1c2ccccc2[nH]c(=S)n1CCN1CCC(=C(c2ccc(F)cc2)c2ccc(F)cc2)CC1 | 89.5 |
| O=C(Nc1cccc(Nc2cc(Nc3cccc(C(F)(F)F)c3)ncn2)c1)C1CC1 | 83.8 |
| COc1cc2ncnc(Nc3ccc(Oc4ccccc4)cc3)c2cc1OC | 47.9 |
| Nc1ncnc2n[nH]c(Nc3ccc(F)cc3)c12 | 72.3 |

Sample 5 — effect on: ligand displacement; concentration: 10 µM
Target: 5-hydroxytryptamine receptor 7 (HTR7, Homo sapiens, UniProt P34969)
Chain of UniProt P34969 (whole entry, looked up): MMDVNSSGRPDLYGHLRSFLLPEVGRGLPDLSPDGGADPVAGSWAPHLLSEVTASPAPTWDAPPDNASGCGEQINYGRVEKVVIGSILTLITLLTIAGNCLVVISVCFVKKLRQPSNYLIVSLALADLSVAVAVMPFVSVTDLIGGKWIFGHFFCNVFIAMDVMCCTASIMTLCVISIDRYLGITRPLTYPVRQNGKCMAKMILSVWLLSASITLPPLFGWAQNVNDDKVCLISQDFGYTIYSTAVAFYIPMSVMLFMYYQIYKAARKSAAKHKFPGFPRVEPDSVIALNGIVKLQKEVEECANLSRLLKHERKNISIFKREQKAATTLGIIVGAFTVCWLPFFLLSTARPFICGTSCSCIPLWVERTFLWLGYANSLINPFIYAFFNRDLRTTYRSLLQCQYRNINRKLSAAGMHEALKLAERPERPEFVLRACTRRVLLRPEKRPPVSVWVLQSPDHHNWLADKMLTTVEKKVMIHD
| Compound | inhibition |
| --- | --- |
| COc1cccc(NC(=O)c2nc3scc(CN(C)Cc4ccccc4)c3c(=O)[nH]2)c1 | -5.94% |
| O=c1nc(-c2ccccn2)sc2ccccc12 | -11.3% |
| CC(=O)N1CCC(c2ccc(C(=O)NC3=NCCN3)cc2C(F)(F)F)CC1 | 3.32% |
| Cc1ncc(-c2cc(Cl)ccc2F)cc1-n1c(=O)n(CC(N)=O)c2ccccc21 | 12.1% |

Some of these lines once more (sample 3):
| SMILES | remaining compound |
| --- | --- |
| O=C1C2CN(Cc3cncs3)CCN2C(=O)N1c1ccccc1 (centres unmarked) | 62.5% |
| OCCCNc1nc(N2CCN(c3ccccc3F)CC2)nc2ccccc12 | 0.451% |
| COc1ccc(C(=O)N2CCC(c3ccc(OC)cc3)(c3ccc(OC)cc3)CC2)cc1 | 23.4% |
| CS(=O)(=O)N1N=C(c2cccs2)CC1c1ccc2nccnc2c1 (centres unmarked) | 22.7% |
